Experimental data collected from several papers.
± marks the error that the study gave. Where no end group is shown, it is not given here.

Substance	target or system	test	test system	setting	how to read	measurement	result
CC1(C)CCC(c2ccc(Cl)cc2)=C(CN2CCN(c3ccc(C(=O)NS(=O)(=O)c4ccc(N[C@H](CCN5CCOCC5)CSc5ccccc5)c(S(=O)(=O)C(F)(F)F)c4)cc3)CC2)C1		cell kill, PI exclusion flow cytometry	normal CD3+ T lymphocytes, dog, peripheral blood	24 h		EC50	220 ± 190 nM
Ac-CSNLSTCXLGKLSQDLHRLQTYPKTDVGANAP-NH2 (N-acetyl, C-amide)			peptide, ZDF rats	1.5 and 3 nmol/kg every 3 days, 8 weeks	reference: vehicle	plasma insulin	increased
COc1cc(-c2nc3cc(Cl)ccc3[nH]2)ccc1OCc1ccccc1		ABTS scavenging, absorbance				IC50	1660 nM
C[C@H](Nc1ncnc2nc[nH]c12)c1cc2cccc(Cl)c2c(=O)n1-c1ccccc1		B cell activation, inhibitor, measured: CD86	female Wistar rat, blood	oral, 2 h, with: anti-IgD		ED50	0.09 mg/kg
C[N+](C)(C)CCOC(N)=O			rat aortic rings	1000 nM, no TP508, with: norepinephrine 500 nM		vasorelaxation	32%
CC1(C)C(/C=C/C2=C(Oc3ccc(CCC(=O)N[C@H]4CSSC[C@@H](C(=O)O)NC(=O)[C@H](CC(=O)O)NC(=O)[C@@H]5CCCN5C(=O)CNC(=O)[C@H](CCCCN)NC(=O)[C@H](CC(=O)O)NC(=O)CNC(=O)[C@H](CCCNC(=N)N)NC4=O)cc3)C(=C/C=C3/N(CCC[N+](C)(C)C)c4ccc(S(=O)(=O)O)cc4C3(C)C)/CCC2)=[N+](CCC[N+](C)(C)C)c2ccc(S(=O)(=O)O)cc21		fluorescence imaging	C57BL/6 mice, orthotopic LLC lung tumour	10 nmol, 24 h		fluorescence decay rate at tumour boundary	368 cm⁻¹
cilengitide			Sprague-Dawley rats, TNBS colitis, colon	ip, 18 mg/kg/day, 42 d		collagen deposition	18 ± 2 % muscularis volume
COc1cccc2c1C(=O)c1c(O)c3c(c(O)c1C2=O)C[C@@](O)(C(=O)CO)C[C@@H]3O[C@H]1C[C@H](N)[C@H](O)[C@H](C)O1	Caco-2	qPCR, measured: PI3K		IC50, 24 h	reference: untreated	mRNA level	0.19 ± 0.003 fold
tissue plasminogen activator		measured: fibrin	rat MCAO stroke model, brain	dose not given, 24 h, dosed 4 h after MCAO	reference: saline	BBB leakage	increased
O=c1cc(CO)occ1O			zebrafish AB wild type, head melanin	60 µM, 45 h, from 6 hpf		pigmentation inhibition	18.5 ± 6.11%
O=C(Cn1cc(COc2ccccc2-c2nc(Cc3ccccc3)no2)nn1)NNC(=S)Nc1ccccc1	Caco-2	qPCR, measured: PI3K		IC50, 24 h	reference: untreated cancer cells	mRNA level	0.53 ± 0.0004 fold
COCCc1ccc(OCC(O)CNC(C)C)cc1 (centres unmarked)			rats, adrenaline arrhythmia, myocardium	intragastric, 2.57 g/kg daily, 14 days		Na+/K+-ATPase activity	11 ± 0.74 U/mL
CC(C)C[C@H](NC(=O)[C@H](CO)NC(=O)[C@H](CCCNC(=N)N)NC(=O)[C@H](CC(=O)O)NC(=O)[C@H](CCC(=O)O)NC(=O)[C@H](C)NC(=O)[C@@H]1CCCN1C(=O)[C@H](C)NC(=O)[C@H](CCC(=O)O)NC(=O)[C@@H]1CCCN1C(=O)[C@@H]1CCCN1)C(N)=O			F344 rat, unilateral 6-OHDA lesion	intranasal, 300 µg daily, 4 weeks after lesion, with: d-amphetamine 2.5 mg/kg i.p.	reference: vehicle	reduction of rotation	35%
Cc1cc(C)c(/C=C2\C(=O)Nc3ccccc32)[nH]1		MRI, enhancing lesion	human	concentration not given, 5.3 months		tumour area	4.6 cm²
CC1(C)C2CCC1(C)C(OC(=O)C(O)Cc1ccc(O)c(O)c1)C2 (centres unmarked)			C57BL/6 mouse, transient cerebral ischaemia/reperfusion, brain	intravenous, 12 mg/kg, dosed immediately after reperfusion	reference: untreated ischaemic mice	SOD level	increased
TDVDHVFARF-NH2 (C-amide)		gut contraction	Drosophila melanogaster adult, isolated gut	1 µM, up to 10 min	reference: DMS	inhibition	inactive
insulin aspart		euglycaemic glucose clamp	elderly type 1 diabetes	subcutaneous, 0.2 U/kg		GIRmax	4.9 mg/kg/min
CC[C@@H](C(=O)Nc1ccc(C(N)=O)c(F)c1)n1cc(OC)c(-c2cc(Cl)ccc2-n2cc(C(F)(F)F)nn2)cc1=O			New Zealand White rabbit, FeCl2 jugular injury	intravenous, 0.6 mg/kg		thrombus weight	4.5 mg
CC(C)=CCc1c(-c2ccccc2)n(CC=C(C)C)c2ccccc12	RAW264.7	NO release, inhibitor, Griess		50 µM, 20 h, LPS-stimulated		inhibition	59.2%
CC(C)c1nc(N(C)S(C)(=O)=O)nc(-c2ccc(F)cc2)c1/C=C/[C@@H](O)C[C@@H](O)CC(=O)O			human	dose not given, 10 days	reference: baseline, decrease	LDL-C change	43.7%
O=C(NCc1ccc(F)cc1)C(=O)[C@H](Cc1ccccc1)NC(=O)[C@H]1CCC(=O)N1Cc1ccccc1		passive avoidance	mouse, scopolamine-induced amnesia	ip, 10 mg/kg, with: scopolamine 1 mg/kg ip		step-through latency	193 ± 42.8 s
C[C@H]1c2cccc(O)c2C(=O)C2=C(O)[C@]3(O)C(=O)C(C(N)=O)=C(O)[C@@H](N(C)C)[C@@H]3[C@@H](O)[C@@H]21		inducer, NanoBiT reporter		100 µg/mL, after withdrawal		luminescence signal stability	≥ 6 h

Substance	target or system	test	test system	setting	how to read	measurement	result
NCCCCCCNS(=O)(=O)c1cccc2c(Cl)cccc12		inhibitor, co-immunoprecipitation	mouse forebrain slices	20 µM, with: NMDA 100 µM for 5 min		NMDA-induced loss of PSD-95-α-actinin binding	inhibited
CCOC(=O)N1CCC(NCCNC(=O)c2ccccc2)CC1		whole-cell patch clamp	rat hippocampal CA1 pyramidal cells	30 µM, 2 min	reference: baseline	NMDA current amplitude	138 ± 11.3%
CS/C(S)=N/CCCC[S+](C)[O-] (racemic)		measured: carbohydrate sulfotransferase 1	rat, mammary gland	oral gavage, 200 mg/kg, 4 days daily	reference: vehicle	mRNA level	14.9 fold
CCO[C@@H](Cc1ccc(OCCn2c(C)ccc2-c2ccc(SC)cc2)cc1)C(=O)O		plasma triglyceride not above vehicle	dyslipidemic Sprague-Dawley rat	with: ACC inhibitor 30 mg/kg		effective dose	≥ 0.3 mg/kg
insulin aspart			obese type 2 diabetes patients	subcutaneous, 0.2 U/kg, before standard meal		plasma glucose AUC(0-6 h)	750 mg·h/dL
C=CCN(/C=C1/C(=O)O[C@H](COC)[C@@]2(C)C1=C(O)C(=O)C1=C2[C@H](OC(C)=O)C[C@]2(C)C(=O)CC[C@@H]12)CC=C			patients, incurable solid tumours	dose not given, single agent after docetaxel discontinued		additional cycles with disease control	≤ 10 cycles
CS(=O)(=O)c1ccc(-c2nc3ccccn3c2Nc2ccccc2)cc1		formalin test	male Wistar rat	intraperitoneal, 40 mg/kg	reference: control group	pain score AUC	decreased
Cc1c(C(=O)NN2CCCCC2)nn(-c2ccc(Cl)cc2Cl)c1-c1ccc(Cl)cc1		euglycemic clamp	rat, diet-induced obese, skeletal muscle	intraperitoneal, 10 mg/kg, 6 days	reference: vehicle	glucose uptake	increased
Clc1ccc2[nH]c(-c3ccccc3)cc2c1	RAW264.7	NO release, inhibitor, Griess		50 µM, 20 h, LPS-stimulated		inhibition	49.3%
C[C@@H]1CC(=O)NN=C1c1ccc(N)cc1			guinea pig papillary muscle	up to 30 µM, without forskolin	reference: baseline	increase in contraction force	312 ± 118 mg
Cc1ccc(NC(=O)c2ccc(CN3CCN(C)CC3)cc2)cc1Nc1nccc(-c2cncc(-c3oncc3C)c2)n1			mild-to-moderate Parkinson's disease patients	oral, 50 mg once daily, pre-dose baseline, on anti-Parkinson medication	direction not given	MDS-UPDRS part I score	8.2 ± 2
COC(=O)[C@@H]1[C@H]2C[C@H]3c4[nH]c5ccccc5c4CCN3C[C@@H]2CC[C@@H]1O			ethanol-trained rats	intraperitoneal, 2 mg/kg	reference: vehicle	plasma corticosterone	increased
bovine insulin			Sprague-Dawley rat, fasted	subcutaneous, 1 IU/kg		glucose reduction	45 ± 16.6%
PACAP		measured: ADAM10	APP V717I transgenic mice, brain	intranasal, dose not given, 3 months	reference: vehicle	mRNA level	115 ± 7.8%
insulin degludec		euglycaemic clamp	healthy human subjects	subcutaneous, 0.4 U/kg	lower limit	duration of glucose-lowering effect	> 24 h
CN(Cc1cc(Br)cc(Br)c1N)C1CCCCC1			TRAMP mice	ip, 30 mg/kg three times weekly, 20 weeks from week 15	reference: vehicle	prostate weight	5.2 ± 0.6 g
Polymyxin B			human whole blood	250 ng/mL, 4 h, 37 °C, with: E. coli LPS 0.5 ng/mL	reference: LPS without compound	IL-10 release	34.9 ± 16.7%
RKVVTDFFKNIPQRI		sandwich ELISA	peptide, peptide-specific T cell line, mouse, culture supernatant	dose not given, 48 h		IFN-gamma secretion	0.251 ng/mL
O=C(O)CSc1nnc(C23CC4CC(CC(C4)C2)C3)n1-c1ccccc1		paw oedema	rat	intraperitoneal, 20 mg/kg		inhibition in vivo	28.9%
Cn1c(-c2ccc(Br)s2)nc2cc(-c3nnc(-c4cc(-c5cc(F)cc(F)c5)nc5ccccc45)o3)ccc21			human platelet-rich plasma	concentration not given		plasma recalcification time	410 s
Oc1cccc2ccccc12		fish short-term reproduction	Oryzias latipes, female, liver	258 µg/L, 21 d		vitellogenin level	3840 ± 579 ng/mg liver
CC(C)C[C@@H]1NC(=O)[C@H](CCCNC(=N)N)NC(=O)[C@H](Cc2c[nH]c3ccccc23)NC(=O)[C@H](CCCNC(=N)N)NC(=O)CNC(=O)CNC(=O)[C@H](CCCCN)NC(=O)CNC(=O)[C@H](Cc2c[nH]c3ccccc23)NC(=O)[C@H](CC(=O)O)NC(=O)[C@@H](NC(=O)[C@H](CCC(=O)O)NC(=O)[C@H](C)NC(=O)CCCC[C@@H]2SC[C@@H]3NC(=O)N[C@@H]32)CSSC[C@@H](C(=O)NCC(=O)N2CCC[C@H]2C(=O)O)NC(=O)[C@H](C)NC(=O)[C@H](CCC(=O)O)NC(=O)[C@H]([C@@H](C)O)NC(=O)[C@H](CCCCN)NC(=O)CNC(=O)[C@H](CO)NC(=O)[C@H](C)NC(=O)CNC(=O)[C@@H]2CCCN2C(=O)[C@H](Cc2c[nH]c3ccccc23)NC1=O		thioflavin S, Congo red	APPswe/PSEN1(A246E) mouse, young, brain cortex	s.c., once monthly, 5 to 12 months, without adjuvant	reference: mock-immunized	amyloid plaque burden	38 ± 5%
